Assay results gathered from unrelated publications.
Protocols differ between the studies behind these lines. ± marks the error that the study gave. In brackets after ≈: the same amount, converted by molar mass.

| SMILES | target | test | test system | setting | scale | quantity | value |
| --- | --- | --- | --- | --- | --- | --- | --- |
| Cc1cc(/C=C/c2ccc(O)c(O)c2)[nH]n1 | glutathione S-transferase | enzyme activity | MCF7 | 25 µM, 48 h | – | inhibition | 31% |
| N=C(N)SCc1ccccc1CSC(=N)N | IDO1 (human) | western blot | A-431 | concentration not given, added: IFN-gamma | – | protein level | no effect |
| CCCn1c(=O)c2[nH]c(-c3ccc(N(C)C(=O)c4ccc(C(F)(F)F)nc4)nc3)nc2n(CCC)c1=O | rat adenosine A2B receptor | radioligand displacement | HEK293 membranes | – | relative to: A2B over other adenosine receptors | selectivity ratio | > 400 fold |
| CCC/C(=C\C1=C(C(F)(F)F)C(=O)c2ccccc2C1=O)C(=O)N(CC)CC | NF-κB | reporter gene, luciferase reporter | Pa03C | 24 h, basal activity | – | EC50 | 8.2 ± 0.43 µM |
| C=C/C(=C/C(=O)C[C@H](C)C[C@@H](C)CC[C@H](O)[C@H](C)C(=O)/C=C/[C@H](C)[C@@H](C)O)CC | PP1 (human) | enzyme activity | MCF7 | 20 µM, 4 h | relative to: untreated | inhibition | 9% |
| COc1cc(C(C)C)c(Oc2cnc(N)nc2N)cc1I | chicken P2X3 wild type | ion current, inhibitor, patch clamp | HEK293 transfected | 10 µM, added: ATP 10 µM | – | ATP-evoked current | no inhibition |
| CCCCC/C=C/C(=O)CCc1ccc(O)c(OC)c1 | mouse mAb 1-G12 | antibody binding, indirect competitive ELISA | – | added: coating antigen 4-OVA | – | IC50 | 0.136 µg/mL (≈ 0.492 µM) |
| CC[C@H](C)[C@H](NC(=O)[C@@H]1CCCN1C(=O)[C@H](CCCNC(=N)N)NC(=O)[C@@H]1CCCN1C(=O)[C@@H]1CCCN1C(=O)[C@@H](NC(=O)[C@@H]1CCCN1C(=O)[C@H](CCCNC(=N)N)NC(=O)[C@@H]1CCCN1C(=O)[C@H](CC(C)C)NC(=O)[C@H](Cc1ccc(O)cc1)NC(=O)[C@H](CO)NC(=O)CNC(=O)[C@H](CCCCN)NC(=O)[C@H](CC(=O)O)NC(=O)[C@@H](NC(=O)[C@H](CCCCN)NC(=O)c1ccc2c(c1)C(=O)OC21c2ccc(O)cc2Oc2cc(O)ccc21)C(C)C)[C@@H](C)O)C(=O)N[C@@H](Cc1ccc(O)cc1)C(=O)N[C@@H](CC(N)=O)C(=O)N[C@@H](CCCNC(=N)N)C(=O)N[C@@H](CC(N)=O)C(N)=O | 70S ribosome Escherichia coli | ITC | – | pH 7.5, 30 °C | – | Kd | > 10 µM |
| Br.Br.Br.O=c1c(O)cccn1CCN1CCN(CCn2cccc(O)c2=O)CCN(CCn2cccc(O)c2=O)CC1 | iron(III) | – | – | 25 °C | – | log Ka Fe complex deprotonation | -3.1 ± 0.07 |
| CCCCCCCCCCCCCCCCn1cc[n+](Cc2ccccc2)c1C | hGrx1-roGFP2 redox biosensor | – | Trypanosoma brucei brucei, bloodstream form | 2-fold EC50, 4 h | – | biosensor reduction | 145% |
| N=C(N)NCCC[C@@H]1NC(=O)[C@H](CCCCN)NC(=O)[C@@H](Cc2ccccc2)NC(=O)[C@H](CC(=O)O)NC(=O)CNC1=O | integrin receptors (human) | fluorescence microscopy | A549 | 200 µM, 20 min pre-incubation, added: 10 µM probe | – | probe uptake | inhibited |
| COc1cc(CCC(C)=O)ccc1O | mouse mAb 1-G12 | antibody binding, indirect competitive ELISA | – | added: coating antigen 5-OVA | – | IC50 | 0.114 µg/mL (≈ 0.587 µM) |
| CC(C)CCC[C@@H](C)[C@H]1CCC([C@@H]2CC[C@H]3C[C@H](O)CC[C@]3(C)[C@H]2O)[C@]1(C)CC(=O)O (some centres unmarked) | FXR, mouse | inhibitor | C57BL/6J male mice, antibiotic-treated, ileum and liver | oral gavage, dose not given, added: taurocholic acid | – | FXR target gene mRNA level | inhibited |
| CCN(CC)CC(=O)Nc1cccc(-n2cc(-c3ccc4ccc(-c5cn(-c6cccc(NC(=O)CN(CC)CC)c6)nn5)cc4c3)nn2)c1 | GLUT-1 | Western blot | nude mouse, tumour xenograft | ip, 15 mg/kg, within 6 h | – | GLUT-1 protein level | decreased |
